Measured values gathered from unrelated publications.
A part holds a random share of what one study measured.
Sequence of UniProt O75582 (whole entry, looked up): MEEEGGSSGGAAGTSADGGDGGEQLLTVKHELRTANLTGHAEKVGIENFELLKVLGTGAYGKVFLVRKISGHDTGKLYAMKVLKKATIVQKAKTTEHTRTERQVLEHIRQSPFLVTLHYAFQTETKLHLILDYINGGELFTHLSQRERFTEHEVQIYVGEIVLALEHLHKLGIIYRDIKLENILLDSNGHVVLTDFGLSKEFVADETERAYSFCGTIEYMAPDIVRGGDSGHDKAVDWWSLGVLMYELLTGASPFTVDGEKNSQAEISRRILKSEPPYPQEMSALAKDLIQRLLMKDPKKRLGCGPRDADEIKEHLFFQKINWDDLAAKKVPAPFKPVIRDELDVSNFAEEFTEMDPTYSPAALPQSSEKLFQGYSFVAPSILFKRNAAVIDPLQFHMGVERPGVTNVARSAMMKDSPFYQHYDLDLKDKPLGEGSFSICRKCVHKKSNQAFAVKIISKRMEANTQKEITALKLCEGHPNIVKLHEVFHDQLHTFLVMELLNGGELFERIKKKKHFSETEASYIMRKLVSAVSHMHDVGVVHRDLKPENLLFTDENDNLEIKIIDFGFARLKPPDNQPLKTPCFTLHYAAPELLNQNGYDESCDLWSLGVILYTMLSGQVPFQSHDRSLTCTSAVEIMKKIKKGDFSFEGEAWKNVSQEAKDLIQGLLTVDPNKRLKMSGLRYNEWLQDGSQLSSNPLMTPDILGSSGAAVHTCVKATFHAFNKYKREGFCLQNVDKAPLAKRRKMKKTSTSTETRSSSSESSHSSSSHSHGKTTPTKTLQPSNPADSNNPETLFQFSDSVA
Sequence of UniProt Q92918 (whole entry, looked up): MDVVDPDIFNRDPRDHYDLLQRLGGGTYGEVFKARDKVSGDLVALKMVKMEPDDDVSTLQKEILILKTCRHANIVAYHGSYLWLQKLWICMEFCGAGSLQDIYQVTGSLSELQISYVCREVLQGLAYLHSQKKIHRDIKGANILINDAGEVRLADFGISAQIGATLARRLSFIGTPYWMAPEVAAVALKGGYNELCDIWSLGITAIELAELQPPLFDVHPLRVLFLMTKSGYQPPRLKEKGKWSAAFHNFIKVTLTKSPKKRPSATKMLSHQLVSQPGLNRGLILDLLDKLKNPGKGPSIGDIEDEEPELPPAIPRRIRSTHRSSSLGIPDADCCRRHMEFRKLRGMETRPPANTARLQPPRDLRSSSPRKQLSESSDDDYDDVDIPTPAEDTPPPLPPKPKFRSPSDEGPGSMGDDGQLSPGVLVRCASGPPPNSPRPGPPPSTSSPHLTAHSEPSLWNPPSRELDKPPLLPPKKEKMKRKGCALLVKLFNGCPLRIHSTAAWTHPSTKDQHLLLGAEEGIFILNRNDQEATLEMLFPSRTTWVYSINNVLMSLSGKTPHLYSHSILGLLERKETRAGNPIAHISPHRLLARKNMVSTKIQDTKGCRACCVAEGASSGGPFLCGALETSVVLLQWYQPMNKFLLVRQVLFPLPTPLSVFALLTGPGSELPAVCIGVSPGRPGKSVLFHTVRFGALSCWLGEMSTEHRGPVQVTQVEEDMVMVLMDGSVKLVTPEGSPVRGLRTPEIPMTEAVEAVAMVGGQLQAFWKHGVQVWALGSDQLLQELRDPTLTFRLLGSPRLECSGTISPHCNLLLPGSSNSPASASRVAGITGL
Sequence of UniProt Q7KZI7 (whole entry, looked up): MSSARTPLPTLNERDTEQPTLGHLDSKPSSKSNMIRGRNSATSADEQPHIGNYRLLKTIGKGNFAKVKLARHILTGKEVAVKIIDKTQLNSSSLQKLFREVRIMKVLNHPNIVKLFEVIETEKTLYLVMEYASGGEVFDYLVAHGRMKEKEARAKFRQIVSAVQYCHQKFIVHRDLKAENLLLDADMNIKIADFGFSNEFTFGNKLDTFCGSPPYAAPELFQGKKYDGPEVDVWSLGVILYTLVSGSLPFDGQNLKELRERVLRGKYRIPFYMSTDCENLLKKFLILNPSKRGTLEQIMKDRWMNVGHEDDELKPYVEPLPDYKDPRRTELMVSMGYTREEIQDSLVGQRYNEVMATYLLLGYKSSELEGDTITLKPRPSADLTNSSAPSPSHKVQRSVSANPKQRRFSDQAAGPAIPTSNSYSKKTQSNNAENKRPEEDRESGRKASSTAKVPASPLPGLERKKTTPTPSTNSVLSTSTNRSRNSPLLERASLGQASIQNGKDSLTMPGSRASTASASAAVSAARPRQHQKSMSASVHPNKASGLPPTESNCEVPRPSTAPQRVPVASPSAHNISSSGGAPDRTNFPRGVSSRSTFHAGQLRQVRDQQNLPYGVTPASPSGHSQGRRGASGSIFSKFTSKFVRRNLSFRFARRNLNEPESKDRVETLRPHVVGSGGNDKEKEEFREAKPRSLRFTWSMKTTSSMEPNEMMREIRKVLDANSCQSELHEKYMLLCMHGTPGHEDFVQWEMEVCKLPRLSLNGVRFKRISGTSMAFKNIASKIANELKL
Sequence of UniProt P68400 (whole entry, looked up): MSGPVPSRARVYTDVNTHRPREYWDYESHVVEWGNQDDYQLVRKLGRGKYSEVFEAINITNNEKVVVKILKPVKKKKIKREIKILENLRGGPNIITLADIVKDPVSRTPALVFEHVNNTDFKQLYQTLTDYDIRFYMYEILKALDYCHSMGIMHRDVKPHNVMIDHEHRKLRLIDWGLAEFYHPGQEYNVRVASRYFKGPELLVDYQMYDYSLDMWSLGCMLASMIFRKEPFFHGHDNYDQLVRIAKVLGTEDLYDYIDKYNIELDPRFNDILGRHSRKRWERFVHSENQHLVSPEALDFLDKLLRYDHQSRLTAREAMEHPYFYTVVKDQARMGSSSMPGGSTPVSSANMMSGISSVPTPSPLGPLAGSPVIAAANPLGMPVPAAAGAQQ
Sequence of UniProt Q9UIK4 (whole entry, looked up): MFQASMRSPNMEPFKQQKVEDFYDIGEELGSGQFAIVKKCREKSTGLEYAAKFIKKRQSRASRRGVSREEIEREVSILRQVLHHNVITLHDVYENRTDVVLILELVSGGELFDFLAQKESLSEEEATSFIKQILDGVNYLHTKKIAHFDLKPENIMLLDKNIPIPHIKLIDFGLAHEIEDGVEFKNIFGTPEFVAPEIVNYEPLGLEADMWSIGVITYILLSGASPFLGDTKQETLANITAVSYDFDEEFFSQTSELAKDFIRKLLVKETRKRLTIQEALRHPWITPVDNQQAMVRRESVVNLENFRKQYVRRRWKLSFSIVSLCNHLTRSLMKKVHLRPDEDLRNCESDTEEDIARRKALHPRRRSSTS
Sequence of UniProt Q8TDR2 (whole entry, looked up): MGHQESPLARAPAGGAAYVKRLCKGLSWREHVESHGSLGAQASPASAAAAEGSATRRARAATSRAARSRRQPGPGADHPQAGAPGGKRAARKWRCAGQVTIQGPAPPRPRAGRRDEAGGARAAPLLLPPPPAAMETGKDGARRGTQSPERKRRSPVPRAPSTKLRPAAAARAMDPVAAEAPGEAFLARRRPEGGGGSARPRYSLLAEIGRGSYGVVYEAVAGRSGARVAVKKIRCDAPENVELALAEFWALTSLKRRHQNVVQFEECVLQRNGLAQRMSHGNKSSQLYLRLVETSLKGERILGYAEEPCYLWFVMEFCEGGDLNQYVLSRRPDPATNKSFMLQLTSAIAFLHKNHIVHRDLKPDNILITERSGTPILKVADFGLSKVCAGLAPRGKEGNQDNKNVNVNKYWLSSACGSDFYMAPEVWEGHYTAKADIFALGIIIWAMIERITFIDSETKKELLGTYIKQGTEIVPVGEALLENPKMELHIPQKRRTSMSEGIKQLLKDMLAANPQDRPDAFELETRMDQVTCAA
Sequence of UniProt P78356 (whole entry, looked up): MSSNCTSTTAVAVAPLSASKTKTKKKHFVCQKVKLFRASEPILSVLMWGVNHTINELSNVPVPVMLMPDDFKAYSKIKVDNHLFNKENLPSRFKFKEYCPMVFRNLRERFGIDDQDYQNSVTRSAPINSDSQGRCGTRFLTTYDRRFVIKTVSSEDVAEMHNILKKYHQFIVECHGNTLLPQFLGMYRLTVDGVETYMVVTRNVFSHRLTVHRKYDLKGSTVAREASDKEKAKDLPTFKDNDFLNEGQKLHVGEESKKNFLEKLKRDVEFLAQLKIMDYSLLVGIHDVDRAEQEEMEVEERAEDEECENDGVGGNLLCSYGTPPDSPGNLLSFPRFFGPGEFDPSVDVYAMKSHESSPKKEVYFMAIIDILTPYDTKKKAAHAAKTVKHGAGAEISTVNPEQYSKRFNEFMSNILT

Series 1
Host: human
Matrix: microsomes or S9
Concentration: 2 µM
Time: 0.5 h
| SMILES | remaining compound [%] |
| --- | --- |
| CN1C(=O)C2(NCCc3c2[nH]c2ccccc32)c2ccccc21 (stereo not drawn) | 55.8 |
| COc1cccc(CN(C)c2oc(C(C)(C)C)nc2C#N)c1 | 9.46 |
| COc1cc(=O)n(C)cc1C(=O)NCCc1ccc(S(N)(=O)=O)cc1 | 74 |
| Cc1nc(N(C)CC(O)CN2CCN(C)CC2)nc(C)c1CC(C)C (stereo not drawn) | 83.8 |
| C=C1COC(c2cc(C)cc(C)c2)c2c(C(C)C)c(OC)nc(=O)n21 (stereo not drawn) | 41.8 |

Series 2
Target: Calcium/calmodulin-dependent protein kinase type II subunit gamma (CAMK2G, Homo sapiens, UniProt Q13555)
Sequence of UniProt Q13555 (whole entry, looked up): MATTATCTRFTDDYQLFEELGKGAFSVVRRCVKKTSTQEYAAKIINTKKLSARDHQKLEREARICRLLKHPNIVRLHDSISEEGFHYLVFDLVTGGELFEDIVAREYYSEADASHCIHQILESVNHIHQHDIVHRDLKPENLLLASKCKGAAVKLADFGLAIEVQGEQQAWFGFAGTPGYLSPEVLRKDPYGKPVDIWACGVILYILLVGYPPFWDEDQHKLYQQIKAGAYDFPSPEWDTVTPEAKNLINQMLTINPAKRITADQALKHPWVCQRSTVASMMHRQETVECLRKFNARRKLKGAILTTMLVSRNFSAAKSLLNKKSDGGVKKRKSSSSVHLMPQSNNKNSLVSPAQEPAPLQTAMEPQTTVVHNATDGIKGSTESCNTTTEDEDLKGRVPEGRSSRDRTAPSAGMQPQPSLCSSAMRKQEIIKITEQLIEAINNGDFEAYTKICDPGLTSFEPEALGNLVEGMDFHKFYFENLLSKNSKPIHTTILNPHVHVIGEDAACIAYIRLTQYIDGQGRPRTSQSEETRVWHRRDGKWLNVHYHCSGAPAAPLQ
Effect on: enzyme activity
Mode: inhibitor
Concentration: 0.5 µM
Baseline: control
| Structure (SMILES) | remaining activity [%] |
| --- | --- |
| CO[C@H]1C[C@@H]2CC[C@@H](C)[C@@](O)(O2)C(=O)C(=O)N2CCCC[C@H]2C(=O)O[C@H]([C@H](C)C[C@@H]2CC[C@@H](O)[C@H](OC)C2)CC(=O)[C@H](C)/C=C(\C)[C@@H](O)[C@@H](OC)C(=O)[C@H](C)C[C@H](C)/C=C/C=C/C=C/1C | 101 |
| Cn1sc(=O)n(Cc2ccccc2)c1=O | 90.1 |
| NCCNc1ncc(C(N)=O)c(Nc2cccc(C(F)(F)F)c2)n1 | 85.7 |
| COc1ccc(OC)c2c(=S)c3ccccc3[nH]c12 | 95.8 |
| Cc1ccc(NC(=O)c2ccc(CN3CCN(C)CC3)cc2)cc1Nc1nc(-c2cccnc2)cs1 | 98.6 |
| Cc1ccc(Nc2nccc(N(C)c3ccc4c(C)n(C)nc4c3)n2)cc1S(N)(=O)=O | 106 |
| O=C1NC(=O)C(c2cn(CCCO)c3ncccc23)=C1c1cnccn1 | 90.6 |
| O=c1c2ccccc2[nH]c(=S)n1CCN1CCC(=C(c2ccc(F)cc2)c2ccc(F)cc2)CC1 | 97.9 |
| Oc1ccc(-c2nc(-c3ccncc3)c(-c3ccc(F)cc3)[nH]2)cc1 | 101 |
| O=C(O)c1ccc2c3c1cccc3c(=O)n1c3ccccc3nc21 | 96.5 |
| O=C(Nc1cccc(Nc2cc(Nc3cccc(C(F)(F)F)c3)ncn2)c1)C1CC1 | 96.1 |
| CCOC(=O)c1c(C)[nH]c(/C=C2\C(=O)Nc3ccccc32)c1C | 97.6 |
| COc1cc2ncnc(Nc3ccc(F)c(Cl)c3)c2cc1OCCCN1CCOCC1 | 128 |
| COc1cc2ncnc(Nc3ccc(Oc4ccccc4)cc3)c2cc1OC | 94 |
| Nc1[nH]nc2nc3ccccc3nc12 | 108 |
| OCC(O)CCON=C1C(c2c(O)[nH]c3ccccc23)=Nc2ccccc21 (stereo not drawn) | 35.3 |

Series 3
SMILES: C[C@H]1CC[C@H](n2c3cnccc3c3cnc(Nc4ccc5c(n4)CCN(C(=O)CO)C5)nc32)CC1
Effect on: cell-free assay
Concentration: 1 µM
| target | remaining signal [%] |
| --- | --- |
| PIP4K2B (Homo sapiens, UniProt P78356) | 53 |
| DAPK2 (Homo sapiens, UniProt Q9UIK4) | 71 |
| MARK2 (Homo sapiens, UniProt Q7KZI7) | 63 |
| PIK3CA (Homo sapiens, UniProt P42336, C420R) | 58 |
| CILK1 (Homo sapiens, UniProt Q9UPZ9) | 7.7 |
| CAMKK1 (Homo sapiens, UniProt Q8N5S9) | 40 |

Series 4
SMILES: COc1cc(-c2cn(C3CCc4ccccc4N(CC(F)(F)F)C3=O)nn2)ccc1-n1ccc(C)n1 (stereo not drawn)
Effect on: cell-free assay
Technique: competition with immobilised ligand
Concentration: 1 µM
| target | remaining binding |
| --- | --- |
| CDK9 (Homo sapiens, UniProt P50750) | 100% |
| CSNK2A1 (Homo sapiens, UniProt P68400) | 81% |
| MAPK4 (Homo sapiens, UniProt P31152) | 99% |
| Ribosomal protein S6 kinase alpha-5, C-terminal kinase domain (RPS6KA5, Homo sapiens, UniProt O75582) | 71% |
| MAP4K1 (Homo sapiens, UniProt Q92918) | 100% |
| STK35 (Homo sapiens, UniProt Q8TDR2) | 100% |

A few entries again (series 2):
| Structure (SMILES) | remaining activity [%] |
| --- | --- |
| NCCNc1ncc(C(N)=O)c(Nc2cccc(C(F)(F)F)c2)n1 | 85.7 |
| Cc1ccc(NC(=O)c2ccc(CN3CCN(C)CC3)cc2)cc1Nc1nc(-c2cccnc2)cs1 | 98.6 |
| O=C1NC(=O)C(c2cn(CCCO)c3ncccc23)=C1c1cnccn1 | 90.6 |
| COc1ccc(OC)c2c(=S)c3ccccc3[nH]c12 | 95.8 |
